# Experimental data from different studies.
# Each numbered part is a random draw from the data of one study; scales do not carry over between parts.
# Sequence of UniProt Q6P3R8 (whole entry, looked up): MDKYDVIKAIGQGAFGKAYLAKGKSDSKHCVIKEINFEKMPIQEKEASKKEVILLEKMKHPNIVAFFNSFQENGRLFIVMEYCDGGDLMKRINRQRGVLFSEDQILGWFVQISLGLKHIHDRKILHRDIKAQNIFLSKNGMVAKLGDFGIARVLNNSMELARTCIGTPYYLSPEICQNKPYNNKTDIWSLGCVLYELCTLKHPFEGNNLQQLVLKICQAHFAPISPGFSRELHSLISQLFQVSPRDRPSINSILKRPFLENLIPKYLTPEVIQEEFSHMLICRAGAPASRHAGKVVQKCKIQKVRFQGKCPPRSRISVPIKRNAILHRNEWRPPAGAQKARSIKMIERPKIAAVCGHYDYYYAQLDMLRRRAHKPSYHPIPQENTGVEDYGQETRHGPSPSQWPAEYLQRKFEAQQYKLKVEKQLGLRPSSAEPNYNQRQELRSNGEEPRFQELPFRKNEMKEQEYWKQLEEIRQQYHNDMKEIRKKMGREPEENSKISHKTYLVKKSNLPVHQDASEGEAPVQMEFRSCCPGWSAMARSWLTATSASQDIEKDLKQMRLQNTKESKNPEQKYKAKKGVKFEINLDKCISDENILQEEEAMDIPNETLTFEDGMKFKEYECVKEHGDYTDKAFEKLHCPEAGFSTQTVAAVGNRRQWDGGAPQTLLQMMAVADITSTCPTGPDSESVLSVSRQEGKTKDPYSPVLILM
# Sequence of UniProt Q08345 (whole entry, looked up): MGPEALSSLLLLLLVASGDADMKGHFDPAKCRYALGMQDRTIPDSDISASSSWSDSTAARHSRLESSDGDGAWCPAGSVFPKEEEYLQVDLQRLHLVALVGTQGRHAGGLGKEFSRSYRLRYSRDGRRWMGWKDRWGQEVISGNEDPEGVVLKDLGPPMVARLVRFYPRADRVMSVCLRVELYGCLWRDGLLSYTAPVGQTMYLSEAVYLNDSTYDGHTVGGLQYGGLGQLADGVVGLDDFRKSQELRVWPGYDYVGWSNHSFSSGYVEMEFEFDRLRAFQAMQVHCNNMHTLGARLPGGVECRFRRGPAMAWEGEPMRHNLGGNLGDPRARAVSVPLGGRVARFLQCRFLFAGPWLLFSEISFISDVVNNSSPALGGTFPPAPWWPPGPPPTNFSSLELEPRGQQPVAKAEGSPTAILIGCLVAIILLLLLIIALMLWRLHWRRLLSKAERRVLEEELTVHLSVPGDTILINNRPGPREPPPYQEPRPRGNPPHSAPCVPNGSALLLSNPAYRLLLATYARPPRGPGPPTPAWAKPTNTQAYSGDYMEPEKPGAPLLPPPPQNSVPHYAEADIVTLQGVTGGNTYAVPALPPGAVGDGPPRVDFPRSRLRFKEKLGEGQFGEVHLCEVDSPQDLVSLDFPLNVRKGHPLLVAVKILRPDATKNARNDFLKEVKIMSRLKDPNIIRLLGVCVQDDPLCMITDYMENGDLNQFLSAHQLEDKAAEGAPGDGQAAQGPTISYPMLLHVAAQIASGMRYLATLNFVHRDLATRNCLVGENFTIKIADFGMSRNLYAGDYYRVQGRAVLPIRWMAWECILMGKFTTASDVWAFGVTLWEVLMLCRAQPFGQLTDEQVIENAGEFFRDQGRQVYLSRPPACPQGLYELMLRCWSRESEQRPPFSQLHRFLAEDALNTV
# Sequence of UniProt Q9NY57 (whole entry, looked up): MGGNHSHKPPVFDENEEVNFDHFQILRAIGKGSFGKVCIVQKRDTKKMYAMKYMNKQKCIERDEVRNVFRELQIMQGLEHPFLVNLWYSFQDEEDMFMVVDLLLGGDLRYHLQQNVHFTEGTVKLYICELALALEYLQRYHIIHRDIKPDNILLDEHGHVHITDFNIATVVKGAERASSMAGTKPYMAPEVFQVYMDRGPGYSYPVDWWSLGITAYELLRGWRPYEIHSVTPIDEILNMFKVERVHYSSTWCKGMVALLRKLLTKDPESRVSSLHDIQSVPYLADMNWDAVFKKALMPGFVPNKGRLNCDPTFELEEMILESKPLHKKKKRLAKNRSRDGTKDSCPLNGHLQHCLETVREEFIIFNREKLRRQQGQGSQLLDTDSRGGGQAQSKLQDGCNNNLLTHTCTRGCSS
# Sequence of UniProt O76039 (whole entry, looked up): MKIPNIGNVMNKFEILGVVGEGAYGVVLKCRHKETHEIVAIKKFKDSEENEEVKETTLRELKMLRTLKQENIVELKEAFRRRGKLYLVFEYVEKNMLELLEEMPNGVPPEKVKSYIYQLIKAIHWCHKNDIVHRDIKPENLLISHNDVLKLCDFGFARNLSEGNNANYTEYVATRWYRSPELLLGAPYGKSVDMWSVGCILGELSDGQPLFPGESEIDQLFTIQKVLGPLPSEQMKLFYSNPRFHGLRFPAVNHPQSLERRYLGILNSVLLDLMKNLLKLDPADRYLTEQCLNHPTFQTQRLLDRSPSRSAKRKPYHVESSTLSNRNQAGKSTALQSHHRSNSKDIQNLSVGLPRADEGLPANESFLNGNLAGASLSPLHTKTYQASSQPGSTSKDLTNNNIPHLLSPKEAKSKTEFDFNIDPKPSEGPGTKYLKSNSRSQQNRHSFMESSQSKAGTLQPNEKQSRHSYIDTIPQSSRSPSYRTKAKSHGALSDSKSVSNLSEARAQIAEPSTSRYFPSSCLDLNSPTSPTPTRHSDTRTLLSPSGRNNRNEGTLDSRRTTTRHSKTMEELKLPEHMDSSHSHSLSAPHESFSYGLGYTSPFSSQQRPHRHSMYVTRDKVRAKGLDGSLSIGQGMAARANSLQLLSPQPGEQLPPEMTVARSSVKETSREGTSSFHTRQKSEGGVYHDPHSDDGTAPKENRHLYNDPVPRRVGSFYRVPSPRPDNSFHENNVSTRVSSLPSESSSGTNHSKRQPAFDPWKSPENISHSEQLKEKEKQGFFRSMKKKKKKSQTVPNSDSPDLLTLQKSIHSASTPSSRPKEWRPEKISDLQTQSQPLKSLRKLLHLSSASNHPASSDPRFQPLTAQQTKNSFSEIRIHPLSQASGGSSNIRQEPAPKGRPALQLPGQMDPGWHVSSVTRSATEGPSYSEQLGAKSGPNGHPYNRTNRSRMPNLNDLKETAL
# Sequence of UniProt Q9Y5S2 (whole entry, looked up): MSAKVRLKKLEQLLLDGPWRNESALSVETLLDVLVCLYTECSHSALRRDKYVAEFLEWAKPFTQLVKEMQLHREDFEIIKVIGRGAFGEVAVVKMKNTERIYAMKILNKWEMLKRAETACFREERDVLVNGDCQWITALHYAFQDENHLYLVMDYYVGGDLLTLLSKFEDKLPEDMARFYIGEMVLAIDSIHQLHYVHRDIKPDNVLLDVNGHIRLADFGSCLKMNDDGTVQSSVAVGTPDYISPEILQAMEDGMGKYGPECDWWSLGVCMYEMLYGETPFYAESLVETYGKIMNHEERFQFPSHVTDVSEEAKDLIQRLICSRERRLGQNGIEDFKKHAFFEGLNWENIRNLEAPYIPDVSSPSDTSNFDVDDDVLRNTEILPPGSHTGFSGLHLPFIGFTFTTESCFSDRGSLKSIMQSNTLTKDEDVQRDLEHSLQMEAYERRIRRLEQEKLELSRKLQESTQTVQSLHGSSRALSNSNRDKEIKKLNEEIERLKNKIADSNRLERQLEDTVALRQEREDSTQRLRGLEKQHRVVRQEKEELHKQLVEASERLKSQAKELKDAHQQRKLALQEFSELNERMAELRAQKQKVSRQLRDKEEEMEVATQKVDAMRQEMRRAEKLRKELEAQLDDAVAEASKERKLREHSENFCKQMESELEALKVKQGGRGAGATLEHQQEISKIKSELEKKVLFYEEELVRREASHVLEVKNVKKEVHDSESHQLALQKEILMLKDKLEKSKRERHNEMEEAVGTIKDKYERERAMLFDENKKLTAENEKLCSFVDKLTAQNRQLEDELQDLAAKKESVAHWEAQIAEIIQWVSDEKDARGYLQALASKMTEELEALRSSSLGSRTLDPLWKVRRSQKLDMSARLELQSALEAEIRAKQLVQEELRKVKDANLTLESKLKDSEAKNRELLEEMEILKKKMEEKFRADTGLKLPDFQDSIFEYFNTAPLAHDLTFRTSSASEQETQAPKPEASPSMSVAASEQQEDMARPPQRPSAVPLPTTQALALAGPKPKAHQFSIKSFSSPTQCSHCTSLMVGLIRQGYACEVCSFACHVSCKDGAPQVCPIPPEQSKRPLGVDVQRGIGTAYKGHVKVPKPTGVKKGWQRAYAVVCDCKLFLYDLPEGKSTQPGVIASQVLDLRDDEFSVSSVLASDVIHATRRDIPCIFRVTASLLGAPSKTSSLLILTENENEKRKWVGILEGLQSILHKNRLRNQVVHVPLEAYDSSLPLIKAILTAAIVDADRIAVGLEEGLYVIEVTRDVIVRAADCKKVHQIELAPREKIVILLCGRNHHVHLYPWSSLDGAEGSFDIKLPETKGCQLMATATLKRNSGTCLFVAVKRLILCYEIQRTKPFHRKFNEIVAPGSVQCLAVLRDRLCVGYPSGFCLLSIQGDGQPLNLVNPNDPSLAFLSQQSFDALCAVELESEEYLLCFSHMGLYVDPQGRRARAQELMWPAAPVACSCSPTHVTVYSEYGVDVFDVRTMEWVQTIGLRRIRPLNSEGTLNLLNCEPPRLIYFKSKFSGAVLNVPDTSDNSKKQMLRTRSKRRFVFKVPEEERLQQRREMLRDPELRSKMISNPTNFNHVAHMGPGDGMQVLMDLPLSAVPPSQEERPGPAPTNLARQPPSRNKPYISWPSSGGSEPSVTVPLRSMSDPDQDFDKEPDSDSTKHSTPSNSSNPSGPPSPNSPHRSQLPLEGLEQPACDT
# Sequence of UniProt Q15759 (whole entry, looked up): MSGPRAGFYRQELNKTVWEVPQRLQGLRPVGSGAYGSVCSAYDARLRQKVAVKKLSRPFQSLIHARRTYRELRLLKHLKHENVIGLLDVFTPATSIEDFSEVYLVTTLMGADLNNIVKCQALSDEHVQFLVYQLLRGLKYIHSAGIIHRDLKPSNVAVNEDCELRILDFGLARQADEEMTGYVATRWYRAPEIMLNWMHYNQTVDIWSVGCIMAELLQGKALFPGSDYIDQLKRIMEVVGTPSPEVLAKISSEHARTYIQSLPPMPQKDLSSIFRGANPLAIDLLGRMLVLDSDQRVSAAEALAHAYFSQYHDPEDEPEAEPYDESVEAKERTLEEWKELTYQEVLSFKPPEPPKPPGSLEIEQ

# Study 1
# Compound: CCOC(=O)c1cc2cc(-c3cc(C(=O)NCc4ccc(C(=O)O)cc4)nn3C)ccc2[nH]1
# Read-out: cell-free assay
# Method: competition with immobilised ligand
# Tested at: 0.1 µM
target,remaining binding [%]
"Mast/stem cell growth factor receptor Kit (KIT, Homo sapiens, UniProt P10721, D816H)",75
"eIF-2-alpha kinase GCN2, C-terminal kinase domain (EIF2AK4, Homo sapiens, UniProt Q9P2K8, S808G)",100
"Serine/threonine-protein kinase D3 (PRKD3, Homo sapiens, UniProt O94806)",100
"Serine/threonine-protein kinase haspin (HASPIN, Homo sapiens, UniProt Q8TF76)",77
"Casein kinase II subunit alpha (CSNK2A1, Homo sapiens, UniProt P68400)",81
"Ephrin type-B receptor 6 (EPHB6, Homo sapiens, UniProt O15197)",77
"Fibroblast growth factor receptor 3 (FGFR3, Homo sapiens, UniProt P22607, G697C)",92
"Cyclin-dependent kinase-like 5 (CDKL5, Homo sapiens, UniProt O76039)",87
"Receptor-type tyrosine-protein kinase FLT3 (FLT3, Homo sapiens, UniProt P36888, K663Q)",90
"Epithelial discoidin domain-containing receptor 1 (DDR1, Homo sapiens, UniProt Q08345)",100
"Serine/threonine-protein kinase OSR1 (OXSR1, Homo sapiens, UniProt O95747)",100
"Serine/threonine-protein kinase 32B (STK32B, Homo sapiens, UniProt Q9NY57)",92
"Phosphatidylinositol 4,5-bisphosphate 3-kinase catalytic subunit gamma isoform (PIK3CG, Homo sapiens, UniProt P48736)",90
"Serine/threonine-protein kinase Nek5 (NEK5, Homo sapiens, UniProt Q6P3R8)",100

# Study 2
# Target: RNA binding protein fox-1 homolog 2, RRM domain, GST-SBP tag (RBFOX2, Homo sapiens, UniProt O43251-10, residues 100-194)
# Method: RNA Bind-n-Seq
# Form: RNA
# Matrix: in vitro
# Tested at: 365 nM
# Setting: natural RNA segment, single round, ends assumed
# Relative to: no-protein control
# Reading: higher = stronger binding
# All sequences stand within: GGGAGUUCUACAGUCCGACGAUC … UGGAAUUCUCGGGUGCCAA
# Construct (chain): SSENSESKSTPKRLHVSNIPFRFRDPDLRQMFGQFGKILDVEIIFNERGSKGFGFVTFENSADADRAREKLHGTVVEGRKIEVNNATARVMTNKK
Sequence,RBNS enrichment (R)
UGUGACAGUCUGUGGGGACUGUCCCAGUGCCUUUGUGAUGACCUAAACUGCACUGAGUCUCUUGCCAAGAAGCAAUGCUUUUUUUGUGAAGGCCACUCAGAGCAUCUUGC,0.421
UAAGUCUUUGAUUUUAUGAUUUAUUUCUGUAUGGCACUGGAUAAAAAUAUUAUUAAAACAUUUCUGCCUAUGGUUAAAAAUCCAGAAAUCAAAGAAAUGAUCUUCAUGAU,0.522
AAGAACAUUAACGUCACAAGUUCUAAGUAGUUUUCACAGCAAAGAAUAUUUGAUAAUGGUUGCACUUAUCUUCAGUGCAGGUUAGAAGAGUCUUCUCAACCAAGCUUAAC,0.3
AGGGACCUCCUCCUUAUUUCUGACUCAUAUCUAAGUAAGGUUCCCCAGGACAGCCACAGUUGUACUGAGGGGGGCUGACAUGUUUGGCAUCCUGGCUAUAGUAUUGUAUA,0.409
UGAGAAAUUGGCAUUUCUACAGCUGAAAUUCAAUGUAUCUGUUAGAGAUGUCUGGAAGGGUUACUUAGCCAAAUUUUACUCAAGCCAAUUAGGAGCUGAUAUUAUCAGUU,0.308
GUUACGCGUGCCAUGAGAACCCACUCUACACCACGACGCUGGUGCCUCAGUGUUGGCCAAACUCUGGAGUCACUGACUGGUUUGACUUUCAUACGGUGAAUAUGCAUUUG,0.725
AAAUGGGAGGGGUUGUCCCUCCCCAUCAUCCAUUCCUGUGAGGUGUCUCAAACCAAAGUUAACAGGGAGAGGAUGGGGGAGGGGACAAAUUAGAAUAGGAUAGCAUCUGA,1.36
AAAAAGGAAAUGCAUUAAAUAGAAGGUUGAUAGUUUAUCAUAAACCUGCGGGGAAGAAACUCAGACUUUCUAUUUUUGAUAUUUUGUGCAUUAAUACAUUACAAACAUGA,1.37

# Study 3
# Structure (SMILES): CC(C)c1nn(-c2c(Cl)cccc2Cl)c2nc(Cc3ccc(OCCO)cc3)[nH]c(=O)c12
# Read-out: enzyme activity
# Mode: inhibitor
# Tested at: 0.5 µM
# Relative to: control
target,remaining activity
"Serine/threonine-protein kinase DCLK2 (DCLK2, Homo sapiens, UniProt Q8N568)",95.9%
"Dual specificity mitogen-activated protein kinase kinase 1 (MAP2K1, Homo sapiens, UniProt Q02750)",99.7%
"Cyclin-dependent kinase 9, with cyclin K (CDK9, Homo sapiens, UniProt P50750)",21.6%
"Tyrosine-protein kinase TXK (TXK, Homo sapiens, UniProt P42681)",101%
"MAP/microtubule affinity-regulating kinase 4 (MARK4, Homo sapiens, UniProt Q96L34)",99.5%
"Serine/threonine-protein kinase MRCK beta (CDC42BPB, Homo sapiens, UniProt Q9Y5S2)",105%
"Serine/threonine-protein kinase PAK 3 (PAK3, Homo sapiens, UniProt O75914)",94.8%
"Rho-associated protein kinase 1 (ROCK1, Homo sapiens, UniProt Q13464)",101%
"Mitogen-activated protein kinase 11 (MAPK11, Homo sapiens, UniProt Q15759)",81.8%
"Serine/threonine-protein kinase MARK2 (MARK2, Homo sapiens, UniProt Q7KZI7)",88%
"Calcium/calmodulin-dependent protein kinase type 1B (PNCK, Homo sapiens, UniProt Q6P2M8)",94.3%
"Cyclin-dependent kinase 1, with cyclin A (CDK1, Homo sapiens, UniProt P06493)",7.71%
"Mitogen-activated protein kinase 1 (MAPK1, Homo sapiens, UniProt P28482)",91.7%

# Other studies, line by line
Substance,partner,test,test system,setting,endpoint,value
"TMED10 (Homo sapiens, UniProt P49755)","TMED4 (Homo sapiens, UniProt Q7Z7H5)",cross-linking MS,cells,together with: BSPNO,cross-linked residues,K145 to K152

# Some of these lines once more (study 3):
target,remaining activity
"Dual specificity mitogen-activated protein kinase kinase 1 (MAP2K1, Homo sapiens, UniProt Q02750)",99.7%
"Cyclin-dependent kinase 9, with cyclin K (CDK9, Homo sapiens, UniProt P50750)",21.6%
"Tyrosine-protein kinase TXK (TXK, Homo sapiens, UniProt P42681)",101%
